Measurements gathered from unrelated publications.
Each line is one published result; not all experiments were run side by side. ± gives the spread as reported.

| Compound | system | conditions | scale | quantity | result |
| --- | --- | --- | --- | --- | --- |
| Nc1nc(Cl)nc2c1ncn2Cc1cc(OCC(F)F)cc(OC(F)F)c1 | Sprague-Dawley rat, plasma | oral, 5.0 mg/kg, 24 h | – | plasma concentration | 275 ng/mL |
| [2H]C([2H])([2H])C(c1cc2nnc(-c3cc(F)ccc3F)n2nc1OCc1ncnn1C)(C([2H])([2H])[2H])C([2H])([2H])[2H] | GAERS rat, plasma | oral, dose not given, about 2.5 h, exposure at efficacy | – | plasma concentration | < 200 ng/mL |
| CC(=O)c1cnc(N)nc1N1CC[C@H]1c1nn2ccc(Cl)c2c(=O)n1-c1ccccc1 | female Wistar rat | oral, 3 mg/kg two doses at 0 and 8 h, 24 h | – | plasma concentration | 150 ± 35 ng/mL |
| CCCCCCCCCCCCCCCC(=O)NCCOCCOCCOCCOCCOCCOCCOCCOCCC(=O)NCCCC[C@H](NC(=O)CNC(=O)[C@@H]1CSSC[C@H](N)C(=O)N[C@@H](Cc2ccc(O)cc2)C(=O)N[C@@H]([C@@H](C)CC)C(=O)N[C@@H](CCC(N)=O)C(=O)N[C@@H](CC(N)=O)C(=O)N1)C(=O)NCC(N)=O | rat | subcutaneous depot, 10 mg/kg | – | plasma to brain unbound ratio | 0.001 |
| Nc1ccc(-c2ccc3ncc4c(=O)n(COP(=O)([O-])[O-])c(=O)n(-c5cccc(C(F)(F)F)c5)c4c3n2)cn1.[Na+].[Na+] | Sprague Dawley rat, plasma | oral, dose not given | – | plasma exposure | not detected |
| C[Si](C)(C)C[C@H](CN)CC(=O)O | Sprague-Dawley rat male, plasma | oral, 30 mg/kg, 1 h | – | plasma concentration | 98.8 µM |
| Cc1cc2c(NC(=O)N[C@@H]3CC(C)(C)Oc4cc(C(F)(F)F)ccc43)c(C)ccc2cn1 | Sprague-Dawley rat, male | oral, 100 µmol/kg, telemetry study | – | plasma concentration | 700 ng/mL |
| CCCCCCCCCCCC(=O)OC[C@H]1O[C@@H](n2cnc(N)nc2=O)C[C@@H]1OC(=O)CCCCCCCCCCC | rat, Wistar, male, plasma | intravenous, 21 µmol/kg, 2 min | reference: over decitabine, same molar dose | plasma concentration ratio | 8 fold |
| O=c1c2cc(Cl)ccc2sc2c(NCc3ccccc3)nc3ccccc3c12 | rat Sprague-Dawley male, plasma | intravenous, 3 mg/kg, 1440 min | – | plasma concentration | 2.84 ± 0.19 ng/mL |

A few entries again:
| Compound | system | conditions | scale | quantity | result |
| --- | --- | --- | --- | --- | --- |
| CCCCCCCCCCCC(=O)OC[C@H]1O[C@@H](n2cnc(N)nc2=O)C[C@@H]1OC(=O)CCCCCCCCCCC | rat, Wistar, male, plasma | intravenous, 21 µmol/kg, 2 min | reference: over decitabine, same molar dose | plasma concentration ratio | 8 fold |
